Published values gathered from unrelated publications.
Parts stem from different laboratories: compare values within a part only.

Study 1
Target: RING finger protein unkempt homolog, zinc fingers 1-6, GST-SBP tag (UNK, Homo sapiens, UniProt Q9C0B0, residues 30-357)
Sequence of UniProt Q9C0B0 (30-357, looked up): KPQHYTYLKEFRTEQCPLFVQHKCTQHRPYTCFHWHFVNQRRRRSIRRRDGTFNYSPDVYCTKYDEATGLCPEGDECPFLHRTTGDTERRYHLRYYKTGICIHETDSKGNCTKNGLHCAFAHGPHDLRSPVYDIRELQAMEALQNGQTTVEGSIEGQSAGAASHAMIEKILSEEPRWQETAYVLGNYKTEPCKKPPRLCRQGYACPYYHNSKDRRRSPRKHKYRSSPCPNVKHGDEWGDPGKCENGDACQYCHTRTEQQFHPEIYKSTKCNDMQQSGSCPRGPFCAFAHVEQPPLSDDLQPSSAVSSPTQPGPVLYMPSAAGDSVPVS
Technique: RNA Bind-n-Seq
Molecule type: RNA
Sample: in vitro
Tested at: not given
Setting: RNA with constant flanks, human-mouse chimeric sites, ends assumed
Relative to: input RNA pool
Direction: higher = stronger binding
Shared flanks, not repeated: GGGAGUUCUACAGUCCGACGAUC … CAACAGAGGAUUGAGCAUCA
| Oligonucleotide | bound/input enrichment [ratio] |
| --- | --- |
| CUGUGUGGCUUACUAAAAUGGCUUGUAAAGAAGUUUUUCCAAGCUGUAACCCAUGCUGUUAUUAUAGUUGCUGCAAAAUGUUCUUCCUAUUGAUGUUUUUAUUUGUUAACUGAAGGUCUC | 0.283 |
| AAAGAGAAACUAAAGCAACUAAUAGAGGAAGAGGAUUGCAAAGAGAAUUUCAUAGAGAAACUAGGAUUUAUUAGCAAACAUGAGUUAUAUUCCAGAGCGUCUCAGAAACCCCAGCCAAAC | 7.33 |
| CAGUUGAAGACAGAAAAGGAUGAGAAGGAGCUGUAUAAGGUACAUUUGAAGAAUACAGAAAUAGAAAAUACGAAGCUUGUGUCAGAGGUCCAGACUUUAAAGAAUUUAGAUGGAAACAAA | 3.15 |
| CACACACUCUUCUGCGGGACCCUCAUCUUGCAGGCCCGGGCCUAUGUGGGACCGCACGUGCUAGCAGUGGUGACCCGCACAGGGUUCUGCACAGCCAAAGGGGGCCUGGUGAGCUCCAUC | 0.126 |
| GGCUGCUACUAUUCUCCCUGGAGUGGCUGGAGUUCCCCCGGAACCUGGGCCAGACUAAUUUUAGAAAAUGCCAAGUAGGAAGUUUGUUGAGGGUGAAGUGGUCAGAGGCCGAUGGCCUGG | 5.97 |
| AUCCAGUACUCGAAUCACAAAGAACUAAAGACAGAUAAUACAUUAAACCAACGUGCGCAGGCAGUUCUUCAAGCUGUGACAGCUGUCCAGACAGCAAAUACACCUCUUAGUGGCACCACA | 0.434 |
| GUCAACAGUUGUCUCAACCCCAUCCUCUACGCCUUCCUGGAUGAGAACUUCAAGGCCUGCUUCCGCAAGUUCUGCUGUGCAUCUGCCCUGCGCCGGGAGAUGCAGGUGUCUGACCGCGUG | 0.38 |
| AAAGUGAUAACCAUGUUUGUCCAACGACAGGUAUUUUCGGAGAGCAAAGAUGAGAUUGCUUUAGUCCUCUAUGGCACAGAUGGCACUGAUAAUGCCCUUGCUGGCAAGGACCAGUAUCAG | 0.235 |
| UUCAAAGAAAAGGGCAGUUCAUAAAUAUCAUAAGUAACUCUGGGGGAGGGAAAUUCUGUUCUUUUGUUUUUAGUUUUCCCAAAUGAAGCCAAAGUGUGUGUUGAAGAACUGAGAAAAAAU | 0.481 |
| AGAAAGCAAAACUUGGAACGAUUUAAGAAAGGAGACGUAAGAUUCUUGAUUUGCACAGAUGUAGCUGCUAGAGGAAUUGAUAUCCAUGGCGUUCCUUAUGUGAUCAACGUCACCCUGCCU | 0.209 |
| AUCAAAUACUUUGGGGACAUCAUUAGUGUGGGACAGAGACUGUUGCAAGGGGCCCGGAUCUUAGGGAUUCCAGUUAUCAUAACGGAACAAUACCCCAAAGGACUUGGGAGCACGGUUCAA | 0.302 |

Study 2
Target: Prothrombin, mature alpha-thrombin (F2, Homo sapiens, UniProt P00734)
Technique: aptamer microarray, sandwich
Molecule type: DNA with 2'F-ANA
Sample: in vitro
Tested at: 200 nM
Setting: whole 15-mer aptamer, many near background
Added: Cy3 exosite-II aptamer, 400 nM
Direction: higher = stronger binding
Oligonucleotide: GGTTGGTGTGGTTGG
| Modification | mean fluorescence intensity |
| --- | --- |
| 2'F-ANA at 1 2 4 5 6 7 11 13 15 | 50.8 a.u. |
| 2'F-ANA at 1 2 5 6 9 11 12 13 15 | 67.4 a.u. |
| 2'F-ANA at 1 2 3 4 6 7 8 12 14 15 | 154 a.u. |
| 2'F-ANA at 2 4 6 7 8 10 11 12 13 14 15 | 80.8 a.u. |
| 2'F-ANA at 1 4 5 6 9 | 72.7 a.u. |
| 2'F-ANA at 1 2 3 4 5 7 8 9 10 11 14 15 | 48.1 a.u. |
| 2'F-ANA at 2 3 4 6 7 8 9 10 11 12 13 14 | 163 a.u. |
| 2'F-ANA at 1 3 7 8 11 12 14 15 | 139 a.u. |
| 2'F-ANA at 4 9 10 11 12 13 15 | 76.1 a.u. |
| 2'F-ANA at 1 4 5 8 9 10 11 12 | 54 a.u. |
| 2'F-ANA at 3 5 6 9 12 | 351 a.u. |
| 2'F-ANA at 1 4 5 6 8 11 12 13 15 | 67.8 a.u. |
| 2'F-ANA at 1 2 3 5 6 7 8 10 11 12 14 15 | 50.7 a.u. |
| 2'F-ANA at 1 3 6 7 10 11 13 | 71.4 a.u. |
| 2'F-ANA at 1 2 3 4 5 9 10 14 15 | 45 a.u. |
| 2'F-ANA at 3 6 10 11 12 13 | 520 a.u. |

Study 3
Target: Histone acetyltransferase KAT6A, both winged helices, GST fusion (KAT6A, Homo sapiens, UniProt Q92794, residues 1-181)
Technique: protein binding microarray
Molecule type: double-stranded DNA, one strand shown
Sample: in vitro
Tested at: not given
Setting: 8-mer, flanks averaged, mean of 2 arrays, mostly near background
Relative to: not given
Direction: higher = stronger binding
Construct (chain): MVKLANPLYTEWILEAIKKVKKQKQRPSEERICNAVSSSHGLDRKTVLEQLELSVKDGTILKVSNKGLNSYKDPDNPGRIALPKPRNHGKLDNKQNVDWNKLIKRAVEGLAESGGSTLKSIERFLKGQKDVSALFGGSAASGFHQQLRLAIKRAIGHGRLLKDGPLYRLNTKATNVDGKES
| Oligonucleotide | E-score |
| --- | --- |
| CCAATATA | -0.156 |
| ATTCTGCC | 0.0118 |
| CGCAGAGC | 0.179 |
| ACTCTGTG | -0.17 |
| CAGTCAAC | -0.128 |
| AAATAACA | 0.0909 |
| ACTGATTA | -0.0258 |
| CCGTTGAC | 0.187 |
| AAGTGTAA | -0.176 |
| ATGAAAGC | -0.0508 |
| TATAGCGA | 0.022 |
| GGTCATGA | 0.0145 |
| CCCCGCTA | 0.257 |
| CAACGATC | 0.00511 |
| ATATGGGA | -0.165 |
| GGCATATA | 0.0587 |
| TAACCCCA | -0.167 |

Study 4
Target: Interferon regulatory factor 3, full length, phosphomimetic (IRF3, Homo sapiens, UniProt Q14653, residues 1-427, S386D/S396D/S398D/S402D/T404D/S405D)
Technique: protein-binding microarray
Molecule type: double-stranded DNA, one strand shown
Sample: in vitro
Tested at: 2540 nM top
Setting: 60-bp whole probe
Added: salmon DNA 0.4 mg/ml
Relative to: random background probes
Direction: higher = stronger binding
Shared flanks, not repeated: GCCTAGCAC … GTCTTGATTCGCTTGACGCTGCTG
Residues (chain): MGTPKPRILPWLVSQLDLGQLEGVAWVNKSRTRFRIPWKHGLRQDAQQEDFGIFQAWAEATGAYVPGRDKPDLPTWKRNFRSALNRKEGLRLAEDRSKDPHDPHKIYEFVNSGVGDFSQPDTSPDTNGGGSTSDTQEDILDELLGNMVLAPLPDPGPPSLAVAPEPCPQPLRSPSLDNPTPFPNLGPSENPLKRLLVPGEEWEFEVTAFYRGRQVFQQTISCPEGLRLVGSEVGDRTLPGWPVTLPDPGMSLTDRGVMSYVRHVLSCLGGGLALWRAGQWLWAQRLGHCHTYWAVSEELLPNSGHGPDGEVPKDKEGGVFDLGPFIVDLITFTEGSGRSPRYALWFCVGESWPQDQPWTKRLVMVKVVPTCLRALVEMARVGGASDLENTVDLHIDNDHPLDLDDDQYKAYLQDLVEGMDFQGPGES
| Oligonucleotide | fitted relative affinity [z-score] |
| --- | --- |
| GACGTTCTCCTTTTCCTGACGTGCTAG | 4.3 |
| GACGGTCTCCTCTTCCTGACGTGCTAG | 0.921 |
| TTAGGTCTCCGACTGCTTTAGTGCTAG | 0.43 |
| TCTCTTTTTGCTTTCTTTTAGTGCTAG | 2.18 |
| TTAGGTCTCAGTCTCGATTAGTGCTAG | 1.2 |
| CTTTAACTCATTCTCTGTTTGTGCTAG | 1.73 |
| GACGGTTTCCTTATACTGACGTGCTAG | 6.94 |
| TTAGGACTGGGACTGTGTTAGTGCTAG | -0.922 |
| CTATCTCTGTTTTTGCTTTCGTGCTAG | 2.97 |
| GACGGTATCGACTATCGCGACGTGCTA | 0.556 |
| GGATCTTGCAGATGTCGCTGGGTGCTA | -0.118 |
| TCTCTGCTACCCTCTGAAAGTGTGCTA | 0.0722 |
| TTATGACTGGGGACTGGGTTAGTGCTA | -0.696 |
| GACGATTTCGGGTATCCAGACGTGCTA | 2.1 |
| TTATATATCGGGTTTCGATTAGTGCTA | 2.26 |
| GTCGGACTGGGTATCGGGACGTGCTAG | 0.155 |
| TTAGATTTCCGTCTCGATTAGTGCTAG | 3.63 |
| CATTTTTTTTTTCTACTTCTGTGCTAG | 2.43 |
| TCATCTTTCTGTCAGTTACTGTGCTAG | 1.51 |
| GACGATTTCCGGTATCGAGACGTGCTA | 1.97 |
| GAGGATCTCAGACTGGAGACGTGCTAG | -0.346 |
| AGCAGAAAGTGAAATACCCTCGTGCTA | -0.368 |
| TCATTCCTGAAATCTCTTACTGTGCTA | 0.849 |

Study 5
Target: Sal-like protein 4, full length isoform A (SALL4, Homo sapiens, UniProt Q9UJQ4, residues 1-1053)
Sequence of UniProt Q9UJQ4 (whole entry, looked up): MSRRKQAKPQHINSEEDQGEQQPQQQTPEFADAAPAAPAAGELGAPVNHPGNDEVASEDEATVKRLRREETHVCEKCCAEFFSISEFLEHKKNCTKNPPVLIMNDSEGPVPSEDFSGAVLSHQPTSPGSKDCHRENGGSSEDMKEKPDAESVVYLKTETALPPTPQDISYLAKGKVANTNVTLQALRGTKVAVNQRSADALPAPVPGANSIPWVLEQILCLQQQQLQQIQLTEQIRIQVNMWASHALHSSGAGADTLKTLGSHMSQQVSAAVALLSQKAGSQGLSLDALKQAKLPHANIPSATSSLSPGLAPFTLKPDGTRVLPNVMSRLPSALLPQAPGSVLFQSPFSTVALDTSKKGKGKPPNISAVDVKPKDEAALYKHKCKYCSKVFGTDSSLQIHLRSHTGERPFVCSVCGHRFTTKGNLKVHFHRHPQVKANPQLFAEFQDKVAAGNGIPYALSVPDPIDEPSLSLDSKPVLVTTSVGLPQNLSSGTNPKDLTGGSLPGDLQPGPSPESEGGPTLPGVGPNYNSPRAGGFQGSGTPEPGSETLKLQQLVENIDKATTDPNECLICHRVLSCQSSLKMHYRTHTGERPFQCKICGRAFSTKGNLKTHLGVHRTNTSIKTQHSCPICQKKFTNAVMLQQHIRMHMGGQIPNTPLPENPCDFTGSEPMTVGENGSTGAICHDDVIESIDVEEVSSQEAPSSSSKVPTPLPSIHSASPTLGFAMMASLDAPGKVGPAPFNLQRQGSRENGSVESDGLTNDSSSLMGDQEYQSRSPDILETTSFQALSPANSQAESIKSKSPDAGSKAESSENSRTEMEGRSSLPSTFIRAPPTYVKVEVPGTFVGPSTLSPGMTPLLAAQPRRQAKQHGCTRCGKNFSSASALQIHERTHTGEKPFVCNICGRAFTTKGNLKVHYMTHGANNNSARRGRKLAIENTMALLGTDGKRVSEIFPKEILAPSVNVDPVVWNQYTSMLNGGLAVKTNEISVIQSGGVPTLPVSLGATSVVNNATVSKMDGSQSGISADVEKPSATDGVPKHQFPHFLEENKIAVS
Technique: universal PBM
Molecule type: double-stranded DNA, one strand shown
Sample: in vitro
Tested at: 600 nM
Setting: 8-mer, flanks averaged, mean of replicates
Direction: higher = stronger binding
| Oligonucleotide | E-score |
| --- | --- |
| GTAGCTAC | 0.0175 |
| CATCATGG | -0.0755 |
| GGAAGGAA | -0.00881 |
| GATACGAA | 0.0628 |
| CCATTCGA | 0.0517 |
| AATAATCA | 0.355 |
| GCTTCTCC | -0.168 |
| GGGCCCCC | -0.473 |
| CTTACAGC | 0.0604 |
| TTACTCAA | 0.264 |
| GGCTCCAA | -0.213 |
| GGCGAGAC | -0.312 |
| CCGACTAA | -0.054 |
| AAATAGAA | 0.175 |
| CAGCTTCG | -0.124 |
| GCGGACCC | -0.386 |
| ACTTCAGC | -0.16 |
| GCAGCCAC | -0.2 |
| CCAGGAGA | -0.134 |
| ATACTGGC | -0.0539 |
| CCCCGCGC | -0.296 |
| ACATTGGA | 0.0436 |
| ATGACGAG | -0.0389 |
| AGTCTTTA | 0.152 |
| CCTAAACG | -0.127 |
